Assay results pooled from the literature.
Every numbered part comes from another study and shows a few of its results, in no order.

Study 1
Target: Fragile X messenger ribonucleoprotein 1, C-terminal low-complexity region (Fmr1, Mus musculus, UniProt P35922)
Technique: RNA Bind-n-Seq
Form: RNA
Matrix: in vitro
Concentration: 200 nM
Notes: whole 134-nt RNA, ends assumed
Added: 150 mM KCl
Relative to: input library
Reading: higher = stronger binding
All sequences stand within: GGGAGUUCUACAGUCCGACGAUC … UGGAAUUCUCGGGUGUCAAGG
Strand | log2 enrichment
UAACUUUAGAGGAGGAUCUGAUGGAUAUGGCAGUGGACGUGGAUUUGGGGAUGGCUAUAAUGGGUAUGGAGGCGGACCUGGAGGUGGCAA | 0.191
GCAGGAAGUAAAAACAAAUGGAAAUGCUUCGGAUAGUGUCAGGGGUGGGGGUUGCUAAGGAAAGGGUGGGAUGGGAGUGGGUAAAGAGUU | 0.622
AAGUCCUGUGCUACACAUCGUAUGUACCGAAUCGGGCCCCGGGGCCCCGGCCCCGGAAAGUAUUAUGUUACGCCGUUCGGAUCUGCACUU | -0.896
CACAGACAACACGCACCCACACAGACACAGAGGGAAGGGGUUGGGAUGGGGACAGGGUGCACAGCAGGGCGGGGUAGGACCCCAGCGCCU | 1.12
AAGUCCUGUGCUACACAUCGUAUGUACCGAAUCGGAAAAAGGGAAAAAGGAAAAAGGAAAGUAUUAUGUUACGCCGUUCGGAUCUGCACU | -0.791
GCAGGAAGUAAAAACAAAUGGAAAUGCUUCGGAUAGUGGCAAAGGUGGGGGUUGCUAAGGAAAGGGUGGGAUGGGAGUGGGUAAAGAGUU | 0.654
GCAGGAAGUAAAAACAAAUGGAAAUGCUUCGGAUAGUGGCAGGGGUGGGGGUUGCUAAGGAAAGGGUGGGAUGUGAGUGGGUAAAGAGUU | 0.333
AGUCCUGUGCUACACAUCGUAUGUACCGAAUCGGGGUGGGGAAAAAGGGGAAAGGGGAAAGUAUUAUGUUACGCCGUUCGGAUCUGCACU | 0.619
UCAAGUCCUGUGCUACACAUCGUAUGUACCGAAUCGGGUUUGGGUGGGAAAGGGAAAGUAUUAUGUUACGCCGUUCGGAUCUGCACUUCC | 1.19

Study 2
Target: Prothrombin, mature alpha-thrombin (F2, Homo sapiens, UniProt P00734)
Technique: aptamer microarray, sandwich
Form: DNA with 2'F-ANA
Matrix: in vitro
Concentration: 200 nM
Notes: whole 15-mer aptamer, many near background
Added: Cy3 exosite-II aptamer, 400 nM
Reading: higher = stronger binding
Strand: GGTTGGTGTGGTTGG
Modification | mean fluorescence intensity
2'F-ANA at 1 5 8 10 11 12 15 | 45.5 a.u.
2'F-ANA at 2 4 5 6 13 | 57.2 a.u.
2'F-ANA at 2 3 4 6 7 12 13 14 15 | 277 a.u.
2'F-ANA at 1 2 3 5 6 7 11 14 | 51.5 a.u.
2'F-ANA at 2 3 6 10 11 12 13 15 | 342 a.u.
2'F-ANA at 1 3 5 6 7 8 10 11 12 13 | 140 a.u.
2'F-ANA at 3 5 10 13 | 53.8 a.u.
2'F-ANA at 5 6 7 10 15 | 46.6 a.u.
2'F-ANA at 5 13 | 56.3 a.u.
2'F-ANA at 6 8 9 11 12 | 687 a.u.
2'F-ANA at 1 2 9 10 11 | 56.7 a.u.
2'F-ANA at 2 3 4 8 9 13 14 15 | 246 a.u.
2'F-ANA at 2 3 4 5 6 9 12 | 184 a.u.
2'F-ANA at 5 6 9 10 11 12 15 | 50.5 a.u.
2'F-ANA at 1 5 6 10 11 12 14 | 121 a.u.
2'F-ANA at 1 2 4 5 6 7 8 9 11 12 | 95.9 a.u.
2'F-ANA at 1 6 7 9 11 13 | 106 a.u.
2'F-ANA at 3 4 5 9 10 11 13 15 | 70 a.u.
2'F-ANA at 3 4 5 7 8 9 10 12 13 14 15 | 48.2 a.u.
2'F-ANA at 1 4 6 7 8 9 11 15 | 98.2 a.u.
2'F-ANA at 3 5 7 8 11 14 | 59.7 a.u.
2'F-ANA at 2 3 4 5 8 10 14 15 | 78 a.u.
2'F-ANA at 1 4 6 8 11 13 14 | 52.1 a.u.
2'F-ANA at 3 4 6 8 11 13 14 15 | 262 a.u.
2'F-ANA at 1 4 5 7 9 14 15 | 45.6 a.u.

Study 3
Target: RNA binding protein fox-1 homolog 2, RRM domain, GST-SBP tag (RBFOX2, Homo sapiens, UniProt O43251-10, residues 100-194)
Technique: RNA Bind-n-Seq
Form: RNA
Matrix: in vitro
Concentration: 365 nM
Notes: natural RNA segment, single round, ends assumed
Relative to: no-protein control
Reading: higher = stronger binding
All sequences stand within: GGGAGUUCUACAGUCCGACGAUC … UGGAAUUCUCGGGUGCCAA
Construct (chain): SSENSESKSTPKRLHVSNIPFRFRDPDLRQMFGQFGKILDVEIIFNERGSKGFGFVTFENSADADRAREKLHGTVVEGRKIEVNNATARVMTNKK
Strand | RBNS enrichment (R)
AGGGCUGUGCUGUUAGGCUGCAUCCCACUCAAAAUACAGGAAAAGCACGAAUCAUGAUUCUGCUUUCUGUUAGCUUAGGCAGACAUUGGGCCUUCACCUACAAGUUUUUC | 0.402
AGUUUGUGGCUUCAUGGAAACUCCCUGUAAACUAAAAGCUUCAGGGUUAUGUCUAUGUUCAUUCUAUAGAAGAAAUGCAAACUAUCACUGUAUUUUAAUAUUUGUUAUUC | 0.694
GCUGAUACAGUACUCAGAAGACUGAACAAAUACUUGAAAAUGGGUUCAAUGUAGACUGCCAUUCUGUGUGGUCUUCCCAUUAAAUGUGAACAUUUUAAUAUGUAUGCAUU | 0.205
CAUUGUCACAUUAUUGACACAGUAAUUAGAAACCCACUGUGGCCUCUUCAGGAGUGUGCUUAUGUCUGUAAAUUGCUGGAGAGGGGGUAGAUGGGCCAGGACAACCAGCA | 2.32
CGUAUUUCUCAUAGGCUAUGCCAUGUGCGGAAUUCAAGUUACCAAUGUAACACUGGCCAGCGGGCCCAGCAAUCUCCAUGUGUACUUAUUACAGUCUUAUUUAACCAGGG | 0.325
UGCCCUCUUGAGUGUGGGGAGCCCCUAGUCCUUUAAGGUUGGCUGCUAAGGCCUGUGCUCCAAAGCAACGGGCUGGGGCAGCCUGCAGCUGCCCACCCAACCUGGUCUUC | 0.214
CUGAAGAUGUGUUCAAUAUUUGUGGGAGGUUUGUCAUAAUCAGUUGGUGGGGUUCACUGCUCUGUUGUCCUGCUCUCUAACCACAGACAGGUAAGGAUUACCUUCUCUAG | 0.586
CAGGACCCUGAUCAUUCACUGUGACACCCCAGCCCUCCAAGGGUACCCCGGGAGACCACGUGACUCUCUCUCUCUCUCUGUCUCUCUCUCUCUCUGUCUCUCUCUCUCUC | 0.884

Study 4
Target: Interferon regulatory factor 7, full length, phosphomimetic (IRF7, Homo sapiens, UniProt Q92985, residues 1-503, S101K/S471D/S472D/S475D/S476D/S477D/S483D/S484D/S487D)
Chain of UniProt Q92985 (whole entry, unmodified, looked up): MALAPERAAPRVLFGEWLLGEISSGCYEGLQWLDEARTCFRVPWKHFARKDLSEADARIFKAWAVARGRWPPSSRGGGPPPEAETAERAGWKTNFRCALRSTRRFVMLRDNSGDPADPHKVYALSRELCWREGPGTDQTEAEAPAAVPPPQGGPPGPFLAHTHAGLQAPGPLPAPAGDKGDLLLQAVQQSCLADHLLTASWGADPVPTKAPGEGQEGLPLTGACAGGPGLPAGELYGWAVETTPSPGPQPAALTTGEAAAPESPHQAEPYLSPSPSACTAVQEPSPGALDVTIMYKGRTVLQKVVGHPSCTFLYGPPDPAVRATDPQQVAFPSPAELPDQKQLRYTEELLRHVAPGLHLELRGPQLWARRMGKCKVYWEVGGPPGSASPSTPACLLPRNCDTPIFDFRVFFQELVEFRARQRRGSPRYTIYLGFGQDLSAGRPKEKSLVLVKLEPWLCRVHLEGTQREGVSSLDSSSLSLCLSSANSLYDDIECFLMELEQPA
Technique: protein-binding microarray
Form: double-stranded DNA, one strand shown
Matrix: in vitro
Concentration: 250 nM
Notes: 60-bp whole probe
Added: salmon DNA 0.4 mg/ml
Relative to: random background probes
Reading: higher = stronger binding
All sequences stand within: GCCTAGCAC … GTCTTGATTCGCTTGACGCTGCTG
Strand | log fluorescence
GGACCGACCCCTCCATCCCTGTGCTAG | -0.537 z-score
GACGGTATCGGGACTGAGGACGTGCTA | -0.4 z-score
TTAGGACTGGGACTGGGTTGGTGCTAG | -0.0175 z-score
TCATATACCCATGTAGAACTGTGCTAG | 0.738 z-score
CCTTATTTAAGACCTATGCACGTGCTA | 1.01 z-score
ACTCAGTAACATTATTGTAGGTGCTAG | -0.0779 z-score
GACTGACTGGGTTTCGGGACGTGCTAG | 2.05 z-score
GACGGTCTCGGACTGGTGACGTGCTAG | -0.227 z-score
GACGGTCTCGGGCTGGGGACGTGCTAG | -0.111 z-score
TTAGGTATCCTACTGCTTTTGTGCTAG | -0.16 z-score
GACGGACTGCTTCTTCTGACGTGCTAG | -0.445 z-score
TCATTTTTTTTTTTGTAACTGTGCTAG | 0.911 z-score
GACGGACTGGACTAACGGGACGTGCTA | -0.739 z-score
GACGATTTCAGTTGCGAGACGTGCTAG | 0.345 z-score
TTAGATATCACTTTCGATTAGTGCTAG | 2.65 z-score
TGAGGTATCGGGTATCGGTTAGTGCTA | 1.12 z-score
TTAGGTTTCGGGTTTCGATTAGTGCTA | 13.2 z-score
